# Assay results gathered from unrelated publications.
# Compare with care: the assays were run in different laboratories. Values joined by “and” are separate records of one study, mostly repeats; a detail may differ. ± marks the error that the study gave.
# TDP1: Tyrosyl-DNA phosphodiesterase 1 (TDP1, Homo sapiens, UniProt Q9NUW8)
# Sequence of UniProt Q9NUW8 (whole entry, looked up): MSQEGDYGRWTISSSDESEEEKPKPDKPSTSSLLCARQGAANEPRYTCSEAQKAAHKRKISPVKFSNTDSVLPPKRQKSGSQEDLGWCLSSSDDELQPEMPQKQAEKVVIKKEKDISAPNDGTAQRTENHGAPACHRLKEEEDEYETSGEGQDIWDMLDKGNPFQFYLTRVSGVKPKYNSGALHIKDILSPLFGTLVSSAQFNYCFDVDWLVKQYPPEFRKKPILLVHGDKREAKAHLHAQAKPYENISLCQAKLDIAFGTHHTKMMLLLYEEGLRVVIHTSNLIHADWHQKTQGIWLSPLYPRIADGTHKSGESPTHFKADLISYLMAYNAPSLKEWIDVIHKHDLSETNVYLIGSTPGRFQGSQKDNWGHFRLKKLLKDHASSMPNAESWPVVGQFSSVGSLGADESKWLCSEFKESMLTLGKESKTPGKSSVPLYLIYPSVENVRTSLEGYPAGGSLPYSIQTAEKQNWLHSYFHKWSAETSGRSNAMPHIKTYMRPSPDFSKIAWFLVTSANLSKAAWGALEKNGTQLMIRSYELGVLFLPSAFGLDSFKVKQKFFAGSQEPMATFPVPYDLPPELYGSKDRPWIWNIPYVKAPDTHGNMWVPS
SMILES,target or system,test,test system,setting,how to read,measurement,result
O=S(=O)(NCc1ccncc1)c1ccc(C2CCCCC2)cc1,,,CK mouse,0.3 mg/kg,reference: vehicle,open field speed change,3 ± 1 cm/s
COc1cccc(OC)c1-c1cc(C(=O)NC2(C(=O)O)C3CC4CC(C3)CC2C4)nn1-c1ccc(C(=O)NCCNC(=O)[C@H](CCCCNC(=O)[C@H](CC(C)C)NC(=O)C2OC2C(=O)O)NC(=O)CN2CCN(CC(=O)[O-])CCN(CC(=O)[O-])CCN(CC(=O)[O-])CC2)cc1C(C)C.[177Lu+3] (mixture of isomers),,,mouse HT-29 xenograft,"24 h, biodistribution",reference: tumour over pancreas,tumour-to-pancreas ratio,12.7
CC(=O)N([O-])CCCCCNC(=O)CCC(=O)N([O-])CCCCCNC(=O)CCC(=O)N([O-])CCCCCN.[89Zr+4],,,0.9 % NaCl saline,"1 days, pH 4.5, 37 °C",,intact compound,97.8 ± 1.6%
COc1cc2oc(-c3ccccc3)cc(=O)c2c(O)c1O,,cyclic voltammetry,"DMSO, 0.1 M Bu4NPF6",25 °C,,half-wave potential,-1.85 V vs Ag/AgCl
COc1cccc(OC)c1-c1cc(C(=O)NC2(C(=O)O)C3CC4CC(C3)CC2C4)nn1-c1ccc(C(=O)N(C)CCOCCOCCN(C)C(=O)[C@H](CCCCNC(=O)[C@H](CC(C)C)NC(=O)C2OC2C(=O)O)NC(=O)CN2CCN(CC(=O)[O-])CCN(CC(=O)[O-])CCN(CC(=O)[O-])CC2)cc1C(C)C.[177Lu+3] (mixture of isomers),,,"mouse HT-29 xenograft, large intestine","24 h post injection, biodistribution",,tissue uptake,0.187 %ID/g
CCCCN1C(=O)c2cccc3c(NCCCCCCN4CCOCC4)ccc(c23)C1=O,,,chloroform,,,emission maximum,512 nm
COc1ccc(NC2(C#N)C(=O)Nc3ccccc32)cc1 (centres unmarked),"Uncharacterized protein (Trypanosoma brucei brucei, UniProt Q386Q8)","enzyme activity, inhibitor, coupled colorimetric",,added: E. coli pyrophosphatase coupling,,IC50,32.2 µM
Clc1cc2nc(c1)CNCc1cc(Cl)cc(n1)CNC2,,potentiometry,,,,sum of log protonation constants,13.9
O=C(Nc1cnccc1-c1ccc([18F])nc1)c1ccnc(NC(=O)C2CC2)c1,,,"mice, transgenic, GSK-3β, early-stage, thalamus","intravenous, dose not given, 120 min",,SUV,0.024
Nc1nc2cnc(C(=O)N3CCOC[C@@H]3c3ccc(C(F)(F)F)cc3)cc2c2c1COC2,,,"rat, plasma",,,fraction unbound,0.099
[123I]c1ccc2nc(-c3ccc(-n4ccnn4)nc3)cn2c1,,,"male Wistar rat, liver","intravenous, 4 MBq, 14 h",,tracer uptake,0.041 %ID/g
CC(C)(O)c1ncc([S@](N)(=O)=NC(=O)Nc2c3c(cc4c2CCC4)CCC3)s1,,"item: skin, subcutaneous tissue disorders",healthy human,"oral, 600 mg, SDD formulation",,subjects with TEAEs,17%
CC[C@H](C)[C@@H]1NC(=O)[C@H](Cc2ccc(O)cc2)NC(=O)CSC[C@@H](C(N)=O)NC(=O)[C@H](CC(N)=O)NC(=O)[C@H](Cc2cnc[nH]2)NC(=O)[C@H](Cc2ccc(O)cc2)NC(=O)[C@H](CC(=O)O)NC(=O)[C@H](Cc2ccc(O)cc2)NC(=O)[C@H](CC(C)C)NC(=O)[C@H](CCCNC(=N)N)NC1=O,,PAMPA,,"200 µM, 5 h, pH 7.4",,membrane retention,< -0.04%
O=C(Nc1cnccc1-c1ccc([18F])cc1)c1ccnc(NC(=O)C2CC2)c1,,,"FVB/NJ mouse, both sexes, brain","intravenous, 20 min",,SUV,0.21
Cc1cc(C(=O)N[C@@H](CC(=O)NC(C)(C)C)C(=O)NCCNC(=O)c2cccc(-n3cccn3)c2)no1,,,"mouse, plasma","oral, 1 mg/kg",,MRT,53.4 min
CCCCN1C(=O)c2cccc3c(NCCN4CCOCC4)ccc(c23)C1=O,,,methanol,,,emission maximum,519 nm
O=C([O-])CN1CCN(CC(=O)[O-])CCN(CC(CCCc2ccccc2[N+](=O)[O-])N(CC(=O)[O-])CC(=O)[O-])CC1.[177Lu+3] (centres unmarked),,HPLC,human serum,"327 h, pH 7, 37 °C",,intact radiolabelled complex,100%
CN1CCN(C(=O)c2ccnc(N3Cc4cnn(Cc5ccc(F)cc5)c4C3)n2)CC1,,metabolic stability,"rat, liver microsomes",,,half-life,12 min
CCc1cnc(NC(=O)c2cc(S(=O)(=O)N3CCOCC3)ccc2N(C)C2CCCC2)s1,,,"mouse, blood","10 mg/kg, 3 doses",,Basophils differential count,0%
Cc1c(C(N)=O)cc(Cl)c2c1O[C@@](C)([C@H]1CC[C@H](N(C)C)CC1)O2,,,"healthy men, urine and feces","oral, 200 mg [14C]-valemetostat",reference: dose,excretion,0.64%
C=CC(=O)Nc1cc(Nc2nccc(-c3cn(C)c4ccccc34)n2)c(OC)cc1N(C)CCNC,,,"human, dried blood spots","72 h, -80 °C, high QC level",,remaining compound,90.3%
CCCCN1C(=O)c2cccc3c(NCCCN4CCOCC4)ccc(c23)C1=O,,,water,pH 6.0,,emission maximum,548 nm
COc1cc(-c2nc3ccccc3s2)cc(CN2CCNCCN(Cc3cc(-c4nc5ccccc5s4)cc(OC)c3O)CC2)c1O,,UV-vis spectrophotometric titration,aqueous NaCl 0.1 M,"20 µM, 25 °C, pH 3 to 11",,pKa2,5.41
C=C[C@]1(C)C[C@@H](OC(=O)CSc2ccc(NC(=O)c3ccco3)cc2)[C@]2(C)[C@H](C)CC[C@]3(CCC(=O)[C@H]32)[C@@H](C)[C@@H]1O,,,"Mycoplasma gallisepticum-infected chickens, plasma","intramuscular, 80 mg/kg, 4 h",,plasma concentration,315 ng/mL and 636 ng/mL and 600 ng/mL and 564 ng/mL and 964 ng/mL and 1080 ng/mL and 999 ng/mL and 596 ng/mL
CC(=O)Nc1nc(C=NOCc2ccc(-c3nc4cc(-c5ccccc5)ccn4c3Nc3ccc(C(=O)O)cc3)cc2)c(Br)s1 (mixture of isomers),TDP1,"enzyme activity, inhibitor",,"100 µM, unpurified compound",,inhibition,83.6%
OC1(C(F)(F)F)CCN(c2nc(Nc3ccnc(C(F)(F)F)c3)nc(-c3cccc(C(F)(F)F)n3)n2)C1 (centres unmarked),,,"monkey, both sexes, plasma","oral, 1 mg/kg, day 14",,AUC(0-inf),37400 ± 17500 ng·h/mL
O=c1c2ccccc2[se]n1CCCCCCn1[se]c2ccccc2c1=O,,"shake-flask, RP-HPLC",10% HP-β-cyclodextrin solution,"24 h, 25 °C",,solubility,60 ± 3 µg/mL
O=C(O)c1ccc(Nc2c(-c3ccc(CON=Cc4ccc(OC(=O)c5ccc6c(c5)OCO6)cc4)cc3)nc3cc(-c4ccccc4)ccn23)cc1 (mixture of isomers),TDP1,"enzyme activity, inhibitor",,"100 µM, unpurified compound",,inhibition,72.7%
Cc1cnc2nc1Nc1cccc(c1)COC/C=C/COCc1cc(ccc1OCCN1CCOCC1)N2,,,"BALB/c mice, rhEPO-induced polycythemia","100 mg/kg, day 0",,body weight,18.2 g and 17.9 g and 18.6 g and 19 g and 18.1 g and 19.1 g
C=C(NC(=O)c1csc(-c2nc3c(cc2O)-c2nc(cs2)C(=O)NC(C(C)O)C(=O)NC(=C(C)OC)c2nc(cs2)C(=O)NC2c4nc(cs4)C(=O)NC(COC(=O)c4c5c6c(cccc6n4O)COC(=O)C(OC4CC(C)(O)C(N(C)C)C(C)O4)C2OC5)c2nc-3cs2)n1)C(N)=O (centres unmarked),,,"cynomolgus monkey, male, plasma","intravenous infusion, 1.5 mg/kg twice daily, 0 to 30 h",,AUC(0-inf),26900 ng·h/mL
CCCCN1C(=O)c2cccc3c(NCCCCCN4CCOCC4)ccc(c23)C1=O,,,dioxane,,,emission maximum,506 nm
CC[C@H](C)[C@@H]1NC(=O)[C@H](Cc2ccc(O)cc2)NC(=O)CCCSC[C@@H](C(=O)N(CC(=O)N[C@@H](CC(C)C)C(=O)NCC(N)=O)Cc2ccc(F)cc2)NC(=O)[C@H](CC(N)=O)NC(=O)[C@H](CCC(N)=O)NC1=O,,,human,"intranasal, 15 µg single dose",,adverse drug reactions,33%
Cc1nc(N)nc2c1C(=O)N[C@@H](c1ccc(F)cc1-c1cccc(OCC[18F])n1)C2,,ex vivo biodistribution,C57BL/6 mouse,"intravenous, 1 MBq, 30 min, baseline, vehicle",,carcass uptake,60.9 ± 0.7 %ID
CC(C(=O)O)n1nc(Cn2cc3cc(OCC[18F])c(Cl)cc3n2)c2ccccc2c1=O (racemic),,,"rat, bone",30 min,,tracer uptake,0.14 %ID/g
CN(C)C(=O)c1ccnc(N2Cc3cn(Cc4cc(Cl)cc(Cl)c4)nc3C2)n1,,metabolic stability,"rat, liver microsomes",,,half-life,32 min

# Some of these lines once more:
SMILES,target or system,test,test system,setting,how to read,measurement,result
CCCCN1C(=O)c2cccc3c(NCCCN4CCOCC4)ccc(c23)C1=O,,,water,pH 6.0,,emission maximum,548 nm
COc1cc(-c2nc3ccccc3s2)cc(CN2CCNCCN(Cc3cc(-c4nc5ccccc5s4)cc(OC)c3O)CC2)c1O,,UV-vis spectrophotometric titration,aqueous NaCl 0.1 M,"20 µM, 25 °C, pH 3 to 11",,pKa2,5.41
C=C[C@]1(C)C[C@@H](OC(=O)CSc2ccc(NC(=O)c3ccco3)cc2)[C@]2(C)[C@H](C)CC[C@]3(CCC(=O)[C@H]32)[C@@H](C)[C@@H]1O,,,"Mycoplasma gallisepticum-infected chickens, plasma","intramuscular, 80 mg/kg, 4 h",,plasma concentration,315 ng/mL and 636 ng/mL and 600 ng/mL and 564 ng/mL and 964 ng/mL and 1080 ng/mL and 999 ng/mL and 596 ng/mL
CC(=O)Nc1nc(C=NOCc2ccc(-c3nc4cc(-c5ccccc5)ccn4c3Nc3ccc(C(=O)O)cc3)cc2)c(Br)s1 (mixture of isomers),TDP1,"enzyme activity, inhibitor",,"100 µM, unpurified compound",,inhibition,83.6%
